Experimental data pooled from the literature.
A part holds a random share of what one study measured.

Study 1
Target: Interferon regulatory factor 7, full length, phosphomimetic (IRF7, Homo sapiens, UniProt Q92985, residues 1-503, S471D/S472D/S475D/S476D/S477D/S483D/S484D/S487D)
Sequence of UniProt Q92985 (whole entry, unmodified, looked up): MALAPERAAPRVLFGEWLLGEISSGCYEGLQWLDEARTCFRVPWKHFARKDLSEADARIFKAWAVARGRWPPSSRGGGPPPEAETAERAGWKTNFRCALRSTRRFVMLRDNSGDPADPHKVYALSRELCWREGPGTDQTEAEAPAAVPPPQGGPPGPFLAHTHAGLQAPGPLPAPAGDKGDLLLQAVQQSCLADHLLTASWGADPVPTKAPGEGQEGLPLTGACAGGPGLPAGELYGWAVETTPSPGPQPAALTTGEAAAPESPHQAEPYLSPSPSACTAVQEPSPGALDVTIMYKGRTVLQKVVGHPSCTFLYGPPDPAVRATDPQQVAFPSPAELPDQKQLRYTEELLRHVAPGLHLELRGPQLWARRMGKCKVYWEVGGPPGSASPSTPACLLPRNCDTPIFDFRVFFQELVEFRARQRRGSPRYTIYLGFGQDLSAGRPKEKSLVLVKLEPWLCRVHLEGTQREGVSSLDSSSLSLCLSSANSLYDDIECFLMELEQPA
Method: protein-binding microarray
Molecule type: double-stranded DNA, one strand shown
Matrix: in vitro
Concentration: 2200 nM top
Notes: 60-bp whole probe
Added: salmon DNA 0.4 mg/ml
Baseline: random background probes
Reading: higher = stronger binding
Strand	fitted relative affinity
GCCTAGCACTTAGATTTCAGTTTCGATTTGTGCTAGGTCTTGATTCGCTTGACGCTGCTG	13.1 z-score
GCCTAGCACTTAGGTTTCAGGACTGGGTTAGTGCTAGTCTTGATTCGCTTGACGCTGCTG	0.618 z-score
GCCTAGCACGACGATTCAAGTTTCGAGACGTGCTAGGTCTTGATTCGCTTGACGCTGCTG	2.85 z-score
GCCTAGCACGACGGTTCGGGTTTCGGGACGTGCTAGGTCTTGATTCGCTTGACGCTGCTG	2.08 z-score

Study 2
Target: Centromere-binding protein 1, full length, His-tagged (CBF1, Saccharomyces cerevisiae, UniProt P17106, residues 1-351)
Sequence of UniProt P17106 (whole entry, looked up): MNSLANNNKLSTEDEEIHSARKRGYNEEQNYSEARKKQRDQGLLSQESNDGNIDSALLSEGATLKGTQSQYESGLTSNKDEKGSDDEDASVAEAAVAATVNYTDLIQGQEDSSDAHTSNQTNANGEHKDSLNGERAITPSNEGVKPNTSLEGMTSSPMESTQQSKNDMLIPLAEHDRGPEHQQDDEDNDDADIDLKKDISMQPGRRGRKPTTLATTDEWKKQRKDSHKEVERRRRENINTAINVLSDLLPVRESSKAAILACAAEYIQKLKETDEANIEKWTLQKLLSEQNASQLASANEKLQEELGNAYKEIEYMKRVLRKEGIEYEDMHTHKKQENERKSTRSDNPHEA
Method: competition protein-binding microarray
Molecule type: double-stranded DNA, one strand shown
Matrix: in vitro
Concentration: 2 µM
Notes: whole 60-bp probe, lowest competitor level
Added: Pho4 competitor, 0.05 µM
Reading: higher = stronger binding
Shared flanks, not repeated: … GTCTTGATTCGCTTGACGCTGCTG
Strand	fluorescence intensity
GGTTAGGTTGACCATCACGTGGAGGTCAGACATTAT	1760 a.u.
CTTTCCCGATCTTGTCACACGACTTTAGCACATTTG	128 a.u.
AAATTACTAAGTTAGCACGTGTTTTACCCCGTATGA	2300 a.u.
CAATCCGCAATTTAGCACGTGCCAGATCCCACCGAC	3060 a.u.
AAAGCGGTAATTTGTCACGGGACTTCACATATCTAT	1650 a.u.

Study 3
Target: Ras GTPase-activating protein-binding protein 1, C-terminal RGG region (G3BP1, Homo sapiens, UniProt Q13283)
Sequence of UniProt Q13283 (whole entry, looked up): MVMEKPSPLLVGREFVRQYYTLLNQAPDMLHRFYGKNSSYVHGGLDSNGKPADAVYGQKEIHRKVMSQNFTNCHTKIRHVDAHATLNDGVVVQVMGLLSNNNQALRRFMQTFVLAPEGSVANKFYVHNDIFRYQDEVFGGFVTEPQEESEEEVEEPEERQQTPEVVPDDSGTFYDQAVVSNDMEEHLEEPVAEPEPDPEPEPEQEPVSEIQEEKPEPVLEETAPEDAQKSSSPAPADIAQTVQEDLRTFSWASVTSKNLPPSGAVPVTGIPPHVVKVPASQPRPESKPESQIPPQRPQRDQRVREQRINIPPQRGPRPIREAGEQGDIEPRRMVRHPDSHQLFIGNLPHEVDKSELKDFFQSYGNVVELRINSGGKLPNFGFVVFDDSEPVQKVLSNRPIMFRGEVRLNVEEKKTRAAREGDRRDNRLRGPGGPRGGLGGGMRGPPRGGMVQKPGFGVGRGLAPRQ
Method: RNA Bind-n-Seq
Molecule type: RNA
Matrix: in vitro
Concentration: 1 µM
Notes: whole 134-nt RNA, ends assumed
Added: 150 mM KCl
Baseline: input library
Reading: higher = stronger binding
Shared flanks, not repeated: GGGAGUUCUACAGUCCGACGAUC … UGGAAUUCUCGGGUGUCAAGG
Strand	log2 enrichment
UGGGAGGUGGAUUUUGUUUAUUUUUUUAGCUCAUUUCCAGGGGUGGGAAUUUAUUUUUAAUAUGUGUCAUGAAUAAAGUUGUUUUUGAAA	3.8
ACCAUGCAGGUGGGCAUCUUUGGGAAGAGGGGCAAGGGGGGGAUAGGGAGGGGGGUAACACUUUGGGAACAGGUGGUCCCAGGUCGUUUC	-1.58
ACCAUGCAGGUGGGCAUCUUUGGGAAGUGGGGCAAGGGGGGGAUAGGGAGGGGGGUAACACUUUGGGAGCAGGUGGUCCCAGGUCGUUUC	2.19
CAAGUCCUGUGCUACACAUCGUAUGUACCGAAUCGGUUUUUGGUUUUUGGAAAGGAAAGUAUUAUGUUACGCCGUUCGGAUCUGCACUUC	-1.59
UGGCCCUGGUGGCAUGCGGGGAGGAAGAGGUGGCCUCAAGGAUCGUGGUGGUCCCGGUGGAAUGUUCAGAGGUGGCCGUGGUGGAGACAG	2

Other studies, line by line
Substance	target	test	system	conditions	how to read	quantity	result
PhoQ, residues 284 288 289 292 302 303 SLANIV	PhoP, residues 12 14 15 18 19 LWHVM (Escherichia coli, UniProt P23836)	Sort-seq, item: YFP reporter	E. coli	PhoQ-PhoP variant library, added: 10 µM Mg2+	baseline: high Mg2+ state, higher = stronger signaling	fold induction	9.59

Excerpt of the above (study 1):
Strand	fitted relative affinity
GCCTAGCACTTAGATTTCAGTTTCGATTTGTGCTAGGTCTTGATTCGCTTGACGCTGCTG	13.1 z-score
GCCTAGCACTTAGGTTTCAGGACTGGGTTAGTGCTAGTCTTGATTCGCTTGACGCTGCTG	0.618 z-score
